Measurements collected from several papers.
Lines come from different studies, so protocols differ. Values joined by “and” are separate records of one study, mostly repeats; a detail may differ. pIC50: −log10 of the molar value.

CCN(CC)CC(=O)Nc1cccc(-n2cc(-c3ccc4ccc(-c5cn(-c6cccc(NC(=O)CN(CC)CC)c6)nn5)cc4c3)nn2)c1 gave a fold regulation of 1.03 (RCC4; PCR angiogenesis array, item: FGF1; 5 x IC50, 2 h, normoxia; reference: untreated).
CNS(=O)(=O)Nc1nccc(Cc2c(C)c3ccc(Oc4ncccc4F)cc3oc2=O)c1F gave a pIC50 of 7.27 (F-36P; cell viability; 7 days).
For c1ccc(-c2n[nH]cc2-c2ccnc3ccccc23)nc1, “log2 fold change” read 0.05 (BUB1 (Candida albicans); kinase binding, MIB/MS competition; Candida albicans lysate; 1 µM; reference: DMSO).
For COc1ccccc1-c1ccncc1C(=O)Nc1nnc(OCc2ccc(Cl)cc2)s1, the colony survival was 77.8% and 97.1% (MDA-MB-231; 6 µM, single replicate; reference: untreated).
Under “percent of control”, C=CC(=O)Nc1cccc(Cn2ncc3cnc(Nc4cnn(CCOC)c4)nc32)c1 is recorded as 100% (ERK5 human; binding, KINOMEscan; 100 nM; lower = stronger binding).
Under “log2 fold change”, Cc1ncsc1-c1ccc(C(C)NC(=O)C2CC(O)CN2C(=O)C(NC(=O)CCCCCCCCCCN2CCCC(Nc3ncc(Cl)c(Nc4ccccc4S(=O)(=O)C(C)C)n3)C2)C(C)(C)C)cc1 (centres unmarked) is recorded as -1.07 (22Rv1; RNA-seq, item: ZNF641 mRNA; concentration not given; reference: DMSO).
Nc1ncc(-c2cc(-c3cnn(CC(F)(F)F)c3)ncc2F)nc1C(=O)NC1CNCC(F)C1 (centres unmarked) gave a remaining binding of 100% (ASK1; KINOMEscan; 1 µM; reference: DMSO control).
For COC1CN([C@H]2CC[C@H]([C@@]3(C)Oc4c(Cl)cc(C(=O)NCc5c(SC)cc(C)[nH]c5=O)c(C)c4O3)CC2)C1, “log2 fold change” read 2.43 (RNA-seq, item: METTL27; human, whole blood; dose not given, 24 h; reference: pretreatment baseline).

Repeated from above:
For COc1ccccc1-c1ccncc1C(=O)Nc1nnc(OCc2ccc(Cl)cc2)s1, the colony survival was 77.8% and 97.1% (MDA-MB-231; 6 µM, single replicate; reference: untreated).
